Published values collected from several papers.
Every numbered part comes from another study and shows a few of its results, in no order.

Series 1 — method: RNA Bind-n-Seq; form: RNA; sample: in vitro; concentration: 365 nM; reference: no-protein control; reading: higher = stronger binding
Target: RNA binding protein fox-1 homolog 2, RRM domain, GST-SBP tag (RBFOX2, Homo sapiens, UniProt O43251-10, residues 100-194)
Notes: natural RNA segment, single round, ends assumed
Residues (chain): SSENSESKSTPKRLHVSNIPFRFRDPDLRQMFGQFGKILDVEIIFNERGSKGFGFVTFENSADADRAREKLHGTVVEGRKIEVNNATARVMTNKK
Oligonucleotide	RBNS enrichment (R)
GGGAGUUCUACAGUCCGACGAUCGAUCUCAUUUUUUAACCCCUUCCUGUCUUGCCUGUCCCAUAGAUAAGGCCUGUGUGCUGCUCUCAUGGCCCUGGUGCACCACCUUUCUGUGAAUCUCUCCCACUGGAUCCUGGAAUUCUCGGGUGCCAA	0.829
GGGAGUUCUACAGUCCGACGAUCUGCGACACUCAGAACACUUGAGGUGAUAGUUUUAAAAAAAACAAACAAACAGUACCAGUAUUUGAUCCAGUCUCAUCUCAGCUGUGUUAUACCUGGACAAUUUAGAUGUUUGGAAUUCUCGGGUGCCAA	0.302
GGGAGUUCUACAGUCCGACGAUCUUUUUUUUUAAAGUGUGGUCCUGUGCUUUCAAAGUAAGUACAGUUCUCUAUGACCAGGCACUUAAACAUAAUUUAAAAGUCCUUGUAGCUUCAGAACCGGAUAAGUUCCAUGGAAUUCUCGGGUGCCAA	0.319
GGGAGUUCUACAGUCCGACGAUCCCCUGCCCUUUAAUGCGCCCAAGUGACAGAACCAGGCUGAGUCCAGCUUGUCUGAGUCAGCUCAUCCCCCUCCAGCCAGGCCUGACCAGGGAUUCAUAGAGUUCCGGGCCUGGAAUUCUCGGGUGCCAA	0.335
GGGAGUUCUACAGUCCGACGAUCCUUACAUCAAAAUGAAAGUAAUUACAUUAAUAGAAAACUUCCAAGUGGAAUAUUGUUCACAGGCAGCUCUUUCUGACCCUGGCUCUUGAGUCACAUAAGGAAACCACCUUUGGAAUUCUCGGGUGCCAA	0.626
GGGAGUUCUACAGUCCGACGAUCUGGUUUGAAGAUCUGCGGGGAAAAAUAAGUGUGCACCUGAGACCUUCAGUUAGUCUUUUAUUUAUUUAGAAUAAAAAAUAGUUUGAUAACCUACCAGAGUUAGUGCUUCUUGGAAUUCUCGGGUGCCAA	1.9

Series 2 — method: protein-binding microarray; form: double-stranded DNA, one strand shown; sample: in vitro; concentration: 2200 nM top; notes: 60-bp whole probe; added: salmon DNA 0.4 mg/ml; reference: random background probes; reading: higher = stronger binding; constant ends, left off below: GCCTAGCAC … GTCTTGATTCGCTTGACGCTGCTG
Target: Interferon regulatory factor 7, full length, phosphomimetic (IRF7, Homo sapiens, UniProt Q92985, residues 1-503, S471D/S472D/S475D/S476D/S477D/S483D/S484D/S487D)
Residues (chain): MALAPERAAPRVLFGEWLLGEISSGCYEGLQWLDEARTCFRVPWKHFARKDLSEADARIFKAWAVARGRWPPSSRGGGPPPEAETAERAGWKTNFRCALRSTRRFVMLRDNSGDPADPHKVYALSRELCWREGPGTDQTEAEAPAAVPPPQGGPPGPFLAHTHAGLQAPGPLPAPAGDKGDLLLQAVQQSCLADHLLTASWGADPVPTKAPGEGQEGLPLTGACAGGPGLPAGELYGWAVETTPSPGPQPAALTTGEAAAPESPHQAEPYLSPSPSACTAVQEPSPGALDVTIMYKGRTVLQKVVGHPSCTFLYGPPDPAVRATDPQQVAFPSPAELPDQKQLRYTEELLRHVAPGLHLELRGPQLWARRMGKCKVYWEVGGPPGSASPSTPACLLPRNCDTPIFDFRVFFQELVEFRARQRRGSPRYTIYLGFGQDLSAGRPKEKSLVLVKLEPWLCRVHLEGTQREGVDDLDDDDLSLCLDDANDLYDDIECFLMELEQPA
Oligonucleotide	fitted relative affinity [z-score]
TTCGAACTGAGTTTCGATTAGTGCTAG	3.78
TGGCCTGTGCTATTTATAAGGGTGCTA	-0.101
AAAAAAATCATTTTCTCTGTGTGCTAG	-0.231
GACGGTCCCCTTATCCTGACGTGCTAG	0.781
GACGGTATCCACTTTCGGGACGTGCTA	5.16
GACGATATCGGGACTGGAAACGTGCTA	-0.161

Series 3 — method: aptamer microarray, sandwich; form: DNA with 2'F-ANA; sample: in vitro; concentration: 200 nM; added: Cy3 exosite-II aptamer, 400 nM; reading: higher = stronger binding
Target: Prothrombin, mature alpha-thrombin (F2, Homo sapiens, UniProt P00734)
Notes: whole 15-mer aptamer, many near background
Oligonucleotide	mean fluorescence intensity [a.u.]
GGTTGGTGTGGTTGG (2'F-ANA at 3 6 7 8 9 10 11 13 14)	352
GGTTGGTGTGGTTGG (2'F-ANA at 2 3 5 6 7 11 12 13 15)	114
GGTTGGTGTGGTTGG (2'F-ANA at 1 3 6 7 9 10 11 14 15)	70.1
GGTTGGTGTGGTTGG (2'F-ANA at 2 3 4 5 6 8 11 12 14)	55.1

Mixed results
Molecule	target	test	system	conditions	how to read	measurement	result
PhoQ, residues 284 288 289 292 302 303 SNSSNI	PhoP, residues 12 14 15 18 19 NMSFL (Escherichia coli, UniProt P23836)	Sort-seq, measured: YFP reporter	E. coli	PhoQ-PhoP variant library, added: 10 µM Mg2+	reference: high Mg2+ state, higher = stronger signaling	fold induction	12.4

Repeated from above (series 2):
Oligonucleotide	fitted relative affinity [z-score]
TGGCCTGTGCTATTTATAAGGGTGCTA	-0.101
AAAAAAATCATTTTCTCTGTGTGCTAG	-0.231
